Assay results from different studies.
± marks the error that the study gave.
Chain of UniProt P07197 (whole entry, looked up): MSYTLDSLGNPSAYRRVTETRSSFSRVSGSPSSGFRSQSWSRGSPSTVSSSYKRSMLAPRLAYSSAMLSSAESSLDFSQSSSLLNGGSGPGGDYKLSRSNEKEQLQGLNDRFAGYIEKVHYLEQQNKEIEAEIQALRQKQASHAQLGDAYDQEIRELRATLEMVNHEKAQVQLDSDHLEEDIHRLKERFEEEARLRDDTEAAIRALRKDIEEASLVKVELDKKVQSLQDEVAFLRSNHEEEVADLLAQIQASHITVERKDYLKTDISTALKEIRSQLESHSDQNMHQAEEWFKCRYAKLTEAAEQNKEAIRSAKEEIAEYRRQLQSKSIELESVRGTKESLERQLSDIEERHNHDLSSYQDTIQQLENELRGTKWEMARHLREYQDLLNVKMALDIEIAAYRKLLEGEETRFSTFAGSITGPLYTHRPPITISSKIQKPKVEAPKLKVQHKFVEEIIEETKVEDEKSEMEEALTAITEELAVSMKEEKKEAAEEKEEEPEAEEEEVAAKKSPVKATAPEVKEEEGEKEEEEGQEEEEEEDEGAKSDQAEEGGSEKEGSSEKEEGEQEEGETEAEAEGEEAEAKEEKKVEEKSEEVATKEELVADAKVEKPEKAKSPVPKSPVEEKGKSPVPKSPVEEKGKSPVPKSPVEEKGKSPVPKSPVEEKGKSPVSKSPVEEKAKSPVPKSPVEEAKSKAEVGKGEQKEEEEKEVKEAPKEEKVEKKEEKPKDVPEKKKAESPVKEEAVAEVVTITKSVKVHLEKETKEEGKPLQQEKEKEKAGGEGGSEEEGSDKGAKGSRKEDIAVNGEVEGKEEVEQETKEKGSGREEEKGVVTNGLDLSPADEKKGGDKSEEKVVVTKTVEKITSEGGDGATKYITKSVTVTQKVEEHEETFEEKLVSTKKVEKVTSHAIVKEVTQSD
Chain of UniProt P23219 (whole entry, looked up): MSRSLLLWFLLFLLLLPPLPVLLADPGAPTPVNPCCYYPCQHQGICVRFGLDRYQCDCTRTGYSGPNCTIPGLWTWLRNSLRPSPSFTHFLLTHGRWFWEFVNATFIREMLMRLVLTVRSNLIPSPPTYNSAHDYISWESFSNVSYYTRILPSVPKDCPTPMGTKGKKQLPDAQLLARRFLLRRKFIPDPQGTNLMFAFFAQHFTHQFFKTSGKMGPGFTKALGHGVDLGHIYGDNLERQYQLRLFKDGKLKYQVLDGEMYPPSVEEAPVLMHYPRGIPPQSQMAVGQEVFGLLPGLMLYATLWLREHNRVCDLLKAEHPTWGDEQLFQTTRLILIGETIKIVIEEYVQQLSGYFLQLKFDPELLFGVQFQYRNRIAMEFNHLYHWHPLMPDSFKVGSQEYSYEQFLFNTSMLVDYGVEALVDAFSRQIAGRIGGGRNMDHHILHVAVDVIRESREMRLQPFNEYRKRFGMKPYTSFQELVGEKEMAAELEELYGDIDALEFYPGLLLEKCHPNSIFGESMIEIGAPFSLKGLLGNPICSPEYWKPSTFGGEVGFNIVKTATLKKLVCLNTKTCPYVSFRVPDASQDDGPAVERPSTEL

For `CC(C)(c1ccccc1)c1cc(-n2nc3ccccc3n2)c(O)c(C(C)(C)c2ccccc2)c1`, “daily dermal exposure dose” read 1.97 ng/kg/day (human aged 2-3 years; concentration not given, sunscreen, 95th percentile).
`CC[C@H](C)[C@H](NC(=O)[C@H](Cc1ccccc1)NC(=O)[C@H](CCC(=O)O)NC(=O)[C@H](CCCNC(=N)N)NC(=O)[C@H](C)NC(=O)[C@H](C)NC(=O)[C@H](CCC(N)=O)NC(=O)[C@H](CCC(=O)O)NC(=O)[C@H](CCC(=O)O)NC(=O)[C@H](CC(C)C)NC(=O)[C@H](Cc1ccc(O)cc1)NC(=O)[C@H](CO)NC(=O)[C@H](CO)NC(=O)[C@@H](NC(=O)[C@H](CC(=O)O)NC(=O)[C@H](CO)NC(=O)[C@@H](NC(=O)[C@H](Cc1ccccc1)NC(=O)[C@@H](NC(=O)CNC(=O)[C@H](CCC(=O)O)NC(=O)[C@H](C)NC(=O)CCc1c[nH]cn1)[C@@H](C)O)[C@@H](C)O)C(C)C)C(=O)N[C@@H](C)C(=O)N[C@@H](Cc1c[nH]c2ccccc12)C(=O)N[C@@H](CC(C)C)C(=O)N[C@H](C(=O)N[C@@H](CCCNC(=N)N)C(=O)NCC(=O)N[C@@H](CCCNC(=N)N)C(=O)N[C@@H](CCCCNC(=O)COCCOCCNC(=O)COCCOCCNC(=O)CC[C@H](NC(=O)CCCCCCCCCCCCCCCCC(=O)O)C(=O)O)C(=O)NCC(=O)NCC(=O)N[C@@H](CO)C(=O)N[C@@H](CCCCNc1c(NCCCCCN(O)C(=O)CCC(=O)NCCCCCN(O)C(=O)CCC(=O)NCCCCCN(O)C(C)=O)c(=O)c1=O)C(=O)O)C(C)C` [zirconium-89 labelled] has a tissue uptake of 0.26 %ID/g (rat, knee; intravenous, 3 nmol/kg, 168 h).
`CC(=O)NCC(=O)NCC(=O)N[C@H](C(=O)N[C@@H](Cc1ccc(O)cc1)C(=O)N[C@@H](CO)C(=O)N[C@H]1CSSC[C@@H](C(=O)N[C@@H](CCCNC(=N)N)C(=O)N2CCC[C@H]2C(=O)N[C@@H](CCC(N)=O)C(=O)N[C@@H](CCCNC(=N)N)C(=O)NCC(=O)NCCC(=O)N[C@@H](CCCCNC(=O)CN(CC(=O)NCCCC[C@H](NC(=O)CCNC(=O)CNC(=O)[C@H](CCCNC(=N)N)NC(=O)[C@H](CCC(N)=O)NC(=O)[C@@H]2CCCN2C(=O)[C@H](CCCNC(=N)N)NC(=O)[C@@H]2CSSC[C@H](NC(=O)[C@H](CO)NC(=O)[C@H](Cc3ccc(O)cc3)NC(=O)[C@@H](NC(=O)CNC(=O)CNC(C)=O)[C@@H](C)O)C(=O)N[C@@H](Cc3c[nH]cn3)C(=O)N[C@@H](Cc3ccccc3)C(=O)NCC(=O)N[C@@H](C)C(=O)N[C@@H](CC(C)C)C(=O)N[C@@H]([C@@H](C)O)C(=O)N[C@@H](Cc3c[nH]c4ccccc34)C(=O)N[C@@H](C(C)C)C(=O)N2)C(N)=O)C(=O)CCN)C(N)=O)NC(=O)[C@H](C(C)C)NC(=O)[C@H](Cc2c[nH]c3ccccc23)NC(=O)[C@H]([C@@H](C)O)NC(=O)[C@H](CC(C)C)NC(=O)[C@H](C)NC(=O)CNC(=O)[C@H](Cc2ccccc2)NC(=O)[C@H](Cc2c[nH]cn2)NC1=O)[C@@H](C)O` — result for serum concentration: “not detected” (MSD immunoassay; BALB/c mice, healthy female, serum; subcutaneous, 0.08 mg/kg, 336 h, LLOQ 2.0 ng/mL).
Under “apparent volume Vz/F”, `CN1CCN(S(=O)(=O)c2cc([N+](=O)[O-])ccc2N(CCOS(C)(=O)=O)CCOS(C)(=O)=O)CC1` is recorded as 3.8 (mg/kg)/(µM) (naive NSG mice, plasma; intraperitoneal, 25 mg/kg).
For `C[C@@H](O)[C@@H](CO)NC(=O)[C@@H](CCCNC(=N)N)NC(=O)[C@@H]1CCCN1C(=O)[C@@H]1CSSC[C@H](NC(=O)[C@H](Cc2ccccc2)NC(=O)CN2CCN(CC(=O)O)CCN(CC(=O)O)CCN(CC(=O)O)CC2)C(=O)N[C@@H](Cc2ccc(O)cc2)C(=O)N[C@@H](Cc2ccccc2)C(=O)N[C@@H](CCC(N)=O)C(=O)N[C@@H](CC(N)=O)C(=O)N1` [gallium-68 labelled], the tissue uptake was 0.27 %ID/g (Wistar rat, stomach; intravenous, 8 MBq, 60 min, group mean).
`CC(C)(O)c1cc(Nc2cc(Oc3cn(C4CC4)nc3C3CCOCC3)ccn2)ccn1` — result for “treatment-emergent adverse events”: 0% (Pyrexia; advanced cancer patients, dose escalation; oral, dose not given, 2 weeks on/off, all causality grade ≥3).
Under “adverse drug reaction incidence”, `C=CC(=O)N1CC[C@H](n2nc(C#Cc3cc(OC)cc(OC)c3)c3c(N)ncnc32)C1` is recorded as 15% (patients with advanced solid tumours; oral, dose not given, Dysgeusia, any grade, QD, together with: phosphate-binding therapy).
The intrinsic clearance of `CC(C)C[C@H](NC(=O)[C@H](Cc1ccccc1)NC(=O)[C@H](Cc1ccccc1)NC(=O)Cc1ccc(-c2ccccc2)cc1)C(=O)N[C@@H](CCCCN)C(=O)N[C@@H](CCCNC(=N)N)C(=O)N[C@H](C(=O)N[C@@H](Cc1c[nH]c2ccccc12)C(=O)N[C@@H](CCCCN)C(=O)N[C@@H](CCCNC(=N)N)C(=O)O)C(C)C` is reported as 487 mL/min/kg (rat liver microsomes).
With `Nc1ncnc2c1ncn2[C@@H]1O[C@@H]2COP(=O)([S-])O[C@@H]3[C@H](O)[C@@H](COP([O-])(=S)O[C@H]2[C@H]1O)O[C@H]3n1cnc2c(N)ncnc21.[Na+].[Na+]` (stereo partly drawn) the total cholesterol was 2.98 ± 0.87 mmol/L (non-tumor-bearing mice, serum; intravenous, 1 mg/kg, toxicity study).
`COc1ccc(C[C@@H]2NC(=O)[C@H]([C@@H](C)O)NC(=O)[C@@H]3[C@@H]4CCN3C(=O)[C@@H]3Cc5cn(c6ccc(F)cc56)CCCCCCN(Cc5ccc(cc5)CCNC(=O)[C@]5(C)CCCN5C2=O)C(=O)CCC(=O)N[C@@H](C)C(=O)N[C@H](CNC(=O)CCCCC[N+](C)(C)C)C(=O)N[C@@H](Cc2cccc(c2)CNC(=O)CO4)C(=O)N3)cc1` — result for “participants with adverse event”: 0% (measured: Restlessness; humans; concentration not given, Study-003).
For `Cn1cc(-c2nc(N[C@@H]3CCCC[C@@H]3N)c(F)c3c2C(=O)NC3)cn1`, “hemorrhagic adverse events” read 17% (measured: Hemoptysis; patients with relapsed or refractory AML; oral, 80 mg twice daily).
`C[C@H]1CN(c2n[nH]c3nc(N[C@H]4CC[C@H](NS(=O)(=O)CCC(F)(F)F)CC4)ncc23)CCO1` has a remaining binding of 1.08 (Neurofilament medium polypeptide (Homo sapiens, UniProt P07197); Kinobeads competition, measured: NEFM; 20 µM, unit not given; relative to: vehicle).
The inhibition of `COc1ccc(N2C(=O)N(c3c(C)cccc3Cl)Cc3cnc(Nc4ccc(C5CCN(C)CC5)cc4OC)nc32)nc1` is reported as 99% (EPHB2 (Homo sapiens, UniProt P29323); kinase activity; 0.5 µM).
Under “dose fraction in permeate”, `O=C(Nc1ccc(Cl)cc1)Nc1ccc(Cl)c(Cl)c1` is recorded as 2.21% (ultrafiltration; cow milk whey; 20 nM nominal in whole milk).
For `CC(=O)c1c(C)c2cnc(Nc3ccc(C4CCN(CCS(C)(=O)=O)CC4)cn3)nc2n(C2CCCC2)c1=O`, the clearance was 2040 mL/min (human, plasma; oral, 50 mg twice daily, day 1, single dose, together with: letrozole).
For `CCCC1CCC(C2CCC(c3ccc(F)c(F)c3)CC2)CC1` (stereo not drawn), “median fetal accumulation” read 0.074 ng/g (rat, fetus; 1000 ng/mL in perfusate, middle dose, mixture of 21 LCMs).
`COc1cc(Nc2ncc(F)c(Nc3ccc4c(n3)NC(=O)C(C)(C)O4)n2)cc(OC)c1OC` gave an IC50 of > 10 µM (PTGS1 (Homo sapiens, UniProt P23219)).
`CC[C@H](C)[C@@H]1NC(=O)[C@@H]2CCCN2C(=O)[C@H](CC(C)C)NC(=O)[C@H](CC(C)C)NC(=O)CNC(=O)[C@@H](NC(=O)[C@@H](NC(=O)[C@H](CC(=O)O)NC(=O)CNC(=O)[C@@H](NC(=O)[C@H](C)NC(=O)CNC(=O)[C@H](CCCCN)NC(=O)[C@H](CC(C)C)NC(=O)[C@H](CC(C)C)NC(=O)[C@H](CCCCN)NC(=O)CNC(=O)[C@@H](NC(=O)[C@@H](N)CC(C)C)C(C)C)C(C)C)C(C)C)CSSC[C@@H](C(=O)O)NC1=O`: “log2 fold change” -1.78 (RNA-seq, measured: Clec4a2 mRNA; mouse traumatic brain injury, frontal cortex and hippocampus; dose not given; relative to: TBI plus compound vs TBI).
`NC(=O)N1c2ccccc2C=Cc2ccccc21` has an acceptor concentration of 43.8 ± 2.5 µM (PAMPA; pre-coated trilayer membrane; 200 µM, 5 h, pH 7.4, acceptor plate, PBS).
For `COc1cc2c(Oc3ccc4[nH]c(C)cc4c3F)ccnc2cc1OCC1(N)CC1`, “T-wave abnormality incidence” read 0% (paediatric refractory sarcoma patients; 8 mg).
With `COc1cc(CCC[P+](c2ccccc2)(c2ccccc2)c2ccccc2)c(OC)c2c1OCO2.[I-]` the GI50 was -6.2 log M (OVCAR-3; SRB).

Excerpt of the above:
`CC[C@H](C)[C@H](NC(=O)[C@H](Cc1ccccc1)NC(=O)[C@H](CCC(=O)O)NC(=O)[C@H](CCCNC(=N)N)NC(=O)[C@H](C)NC(=O)[C@H](C)NC(=O)[C@H](CCC(N)=O)NC(=O)[C@H](CCC(=O)O)NC(=O)[C@H](CCC(=O)O)NC(=O)[C@H](CC(C)C)NC(=O)[C@H](Cc1ccc(O)cc1)NC(=O)[C@H](CO)NC(=O)[C@H](CO)NC(=O)[C@@H](NC(=O)[C@H](CC(=O)O)NC(=O)[C@H](CO)NC(=O)[C@@H](NC(=O)[C@H](Cc1ccccc1)NC(=O)[C@@H](NC(=O)CNC(=O)[C@H](CCC(=O)O)NC(=O)[C@H](C)NC(=O)CCc1c[nH]cn1)[C@@H](C)O)[C@@H](C)O)C(C)C)C(=O)N[C@@H](C)C(=O)N[C@@H](Cc1c[nH]c2ccccc12)C(=O)N[C@@H](CC(C)C)C(=O)N[C@H](C(=O)N[C@@H](CCCNC(=N)N)C(=O)NCC(=O)N[C@@H](CCCNC(=N)N)C(=O)N[C@@H](CCCCNC(=O)COCCOCCNC(=O)COCCOCCNC(=O)CC[C@H](NC(=O)CCCCCCCCCCCCCCCCC(=O)O)C(=O)O)C(=O)NCC(=O)NCC(=O)N[C@@H](CO)C(=O)N[C@@H](CCCCNc1c(NCCCCCN(O)C(=O)CCC(=O)NCCCCCN(O)C(=O)CCC(=O)NCCCCCN(O)C(C)=O)c(=O)c1=O)C(=O)O)C(C)C` [zirconium-89 labelled] has a tissue uptake of 0.26 %ID/g (rat, knee; intravenous, 3 nmol/kg, 168 h).
